Results collected from several papers.
CYP3A4: Cytochrome P450 3A4 (CYP3A4, Homo sapiens, UniProt P08684)
Sequence of UniProt P08684 (whole entry, unmodified, looked up): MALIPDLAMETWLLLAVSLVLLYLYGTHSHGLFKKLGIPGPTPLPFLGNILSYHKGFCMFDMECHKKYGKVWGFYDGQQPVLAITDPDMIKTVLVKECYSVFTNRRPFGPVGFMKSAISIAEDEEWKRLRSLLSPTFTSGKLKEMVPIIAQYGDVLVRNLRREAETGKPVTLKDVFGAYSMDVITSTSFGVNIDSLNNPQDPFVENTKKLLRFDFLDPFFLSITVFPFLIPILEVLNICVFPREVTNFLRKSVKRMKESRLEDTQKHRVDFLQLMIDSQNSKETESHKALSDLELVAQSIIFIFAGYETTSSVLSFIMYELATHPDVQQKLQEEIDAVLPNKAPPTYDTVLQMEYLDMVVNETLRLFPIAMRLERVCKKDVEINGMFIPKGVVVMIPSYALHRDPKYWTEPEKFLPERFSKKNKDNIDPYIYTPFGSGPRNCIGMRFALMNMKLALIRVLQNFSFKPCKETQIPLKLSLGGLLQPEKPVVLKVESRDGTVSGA
CYP3A4 S18F: Cytochrome P450 3A4 (CYP3A4, Homo sapiens, UniProt P08684, S18F)

SMILES	target	test	test system	setting	quantity	result
COc1cc2c(Oc3ccc4[nH]c(C)cc4c3F)ccnc2cc1OCC1(N)CC1	CYP3A4	substrate	–	1 µM, 60 min, pH 7.4, 37 °C	intrinsic clearance	0.32 µL/min/pmol
Cc1noc(C)c1Cn1cc(N2C(=O)N(Cc3cccc(O)c3)C(C)(C)C2=O)cn1	CYP3A4	enzyme activity, inhibitor, fluorescence	Sf9	10 µM	inhibition	26%
CC(C)c1c(C(=O)Nc2ccccc2)c(-c2ccccc2)c(-c2ccc(F)cc2)n1CC[C@@H]1C[C@@H](O)CC(=O)O1	CYP3A4 S18F	substrate, HPLC	nanodiscs with rat CPR	pH 7.4, 37 °C, 2 substrate molecules bound	product formation rate	41 min⁻¹
CC(=O)[C@H]1CC[C@H]2[C@@H]3CCC4=CC(=O)CC[C@]4(C)[C@H]3CC[C@]12C	CYP3A4 S18F	substrate, UV-Vis spin-shift titration	nanodiscs	two substrates bound	high-spin fraction	37%
N#C[C@H](C[C@@H]1CCCNC1=O)NC(=O)[C@H](CC1CC1)NC(=O)c1cc2cccc(Cl)c2[nH]1	CYP3A4	time-dependent inhibitor	human liver microsomes	with: midazolam 1'-hydroxylation	kinact	0.00103 s⁻¹
CC1=N[C@]2(C(=O)CO)[C@@H](C[C@H]3[C@@H]4C[C@@H](O)C5=CC(=O)C=C[C@]5(C)[C@H]4[C@@H](O)C[C@@]32C)O1	CYP3A4	enzyme activity, inhibitor	pooled human liver microsomes	30 min preincubation with NADPH, with: testosterone substrate	IC50	> 50 µM
C#C[C@]1(O)CC[C@H]2[C@@H]3CCc4cc(O)ccc4[C@H]3CC[C@@]21C	CYP3A4	–	human, plasma	oral, dose not given, day 21, geometric LS mean, with: norgestimate, EDP-305 2.5 mg	AUC(0-t)	1.35 ng·h/mL
CCCCc1oc2ccc(NS(C)(=O)=O)cc2c1C(=O)c1ccc(OCCCN(CCCC)CCCC)cc1	CYP3A4 S18F	substrate, HPLC	nanodiscs with rat CPR	pH 7.4, 37 °C, 2 substrate molecules bound	product formation rate	8.2 min⁻¹
COc1cc(O)c2c(c1)C(=O)c1cc(C)cc(O)c1C2=O	CYP3A4	enzyme activity, inhibitor	human, liver microsomes	with preincubation	kinact	0.000817 s⁻¹
NC(=O)N1c2ccccc2C=Cc2ccccc21	CYP3A4 S18F	substrate	nanodiscs with CPR	two substrates bound	NADPH oxidation rate	124 nmol/nmol P450/min
COc1cc(Sc2c(C3CCCCC3)[nH]c3ccccc23)cc(OC)c1OC	CYP3A4	enzyme activity, inhibitor, fluorescence	–	1 µM, 30 min, pH 7.4	inhibition	57%
C#C[C@]1(O)CC[C@H]2[C@@H]3CCC4=CC(=O)CC[C@@H]4[C@H]3CC[C@@]21CC	CYP3A4	–	human, plasma	oral, dose not given, oral contraceptive, day 21, with: EDP-305 2.5 mg	AUC(0-t)	74.8 ng·h/mL
Cc1noc(C)c1Cn1cc(N2C(=O)CN(Cc3cccc(O)c3)C2=O)cn1	CYP3A4	enzyme activity, inhibitor, fluorescence	Sf9	10 µM	inhibition	1%
